Values quoted from earlier work that unrelated publications cite.
Numbered parts are unrelated; values within a part may stem from several laboratories.

Set 1
Organism: Cryptosporidium parvum
Technique: high-throughput screen
Concentration: concentration not given
| Compound | activity |
| --- | --- |
| CCc1nn(CCCN2CCN(c3cccc(Cl)c3)CC2)c(=O)n1CCOc1ccccc1 | inactive |
| CN(C)CCC[C@@]1(c2ccc(F)cc2)OCc2cc(C#N)ccc21 | inactive |
| Fc1ccc([C@@H]2CCNC[C@H]2COc2ccc3c(c2)OCO3)cc1 | inactive |
| COC(=O)Nc1nc2ccc(C(=O)c3ccccc3)cc2[nH]1 | inactive |
| COC(=O)C1=C(C)NC(C)=C(C(=O)O[C@@H]2CCCN(Cc3ccccc3)C2)[C@@H]1c1cccc([N+](=O)[O-])c1.Cl (racemic) | inactive |
| Cc1ccnc2c1NC(=O)c1cccnc1N2C1CC1 | inactive |
| CCCOc1ccc(C(=O)OCCN(CC)CC)cc1N | inactive |
| CCS(=O)(=O)CCn1c([N+](=O)[O-])cnc1C | inactive |
| CN1[C@@H]2CC[C@H]1C[C@@H](OC(c1ccccc1)c1ccccc1)C2.CS(=O)(=O)O | inactive |
| CC(=O)Oc1ccccc1C(=O)Nc1ncc([N+](=O)[O-])s1 | inactive |
| CCCc1c(OCCCCc2nnn[nH]2)ccc(C(C)=O)c1O | inactive |
| NS(=O)(=O)c1cc(C(=O)O)c(NCc2ccco2)cc1Cl | inactive |
| Cl.O.O=C1N(c2ccccc2)c2ccccc2C1(Cc1ccncc1)Cc1ccncc1 | inactive |

Set 2
Target: dopamine transporter
| Structure (SMILES) | IC50 [nM] |
| --- | --- |
| COc1cc(N)c(Cl)cc1C(=O)NC1CCN(CCCOc2ccc(F)cc2)CC1OC (centres unmarked) | > 10000 |
| CCN(CC)CC(=O)Nc1c(C)cccc1C | > 10000 |
| Cc1c(O)cccc1C(=O)N[C@@H](CSc1ccccc1)[C@H](O)CN1C[C@H]2CCCC[C@H]2C[C@H]1C(=O)NC(C)(C)C | 12300 |
| N#Cc1ccc(C(c2ccc(C#N)cc2)n2cncn2)cc1 | > 10000 |

Other studies, line by line
| SMILES | target or system | read-out | setting | baseline | measurement | value |
| --- | --- | --- | --- | --- | --- | --- |
| CC[C@@]1([C@@H]2O[C@@H]([C@H]3O[C@@](O)(CO)[C@H](C)C[C@@H]3C)C[C@@H]2C)CC[C@H]([C@]2(C)CC[C@]3(C[C@H](O)[C@@H](C)[C@@H]([C@@H](C)[C@@H](OC)[C@H](C)C(=O)O)O3)O2)O1 | U-118 MG | cell viability | 3D mini-ring |  | IC50 | 613 nM |
| Cc1cc(Nc2nccc(C)n2)cc(-c2cnc([C@@]3(O)CC[C@H](C(=O)O)C(C)(C)C3)s2)c1 | SYK (human) | enzyme activity |  |  | IC50 | 0.9 nM |
| CC(=O)O[C@H](C)C(=O)CCCCC[C@@H]1NC(=O)[C@H]2CCCN2C(=O)[C@H](Cc2ccccc2)NC(=O)C(C)(C)NC1=O | Jurkat |  |  |  | IC50 | 127 nM |
| Nc1cnc(N2CCc3cc(S(=O)(=O)Nc4c(F)cc(Cl)cc4F)cc(N4CCCC4=O)c32)nc1 | MGAT2 (human) | enzyme activity |  |  | IC50 | 530 nM |
| C[C@@H](O)C(=O)CCCCC[C@@H]1NC(=O)[C@H]2CCCN2C(=O)[C@H](Cc2ccccc2)NC(=O)C(C)(C)NC1=O | Plasmodium falciparum |  |  |  | IC50 | 17.4 nM |
| COc1cc(-c2cn(C3CCc4ccccc4N(CC(F)(F)F)C3=O)nn2)ccc1-n1ccc(C)n1 (centres unmarked) | gamma-secretase complex (human) | cellular activity |  |  | IC50 | > 10000 nM |
| CC(=O)O[C@H]1C(=O)[C@@]2(C)[C@H]([C@H](OC(=O)c3ccccc3)[C@]3(O)C[C@H](OC(=O)[C@H](O)[C@@H](NC(=O)c4ccccc4)c4ccccc4)C(C)=C1C3(C)C)[C@]1(OC(C)=O)CO[C@@H]1C[C@@H]2O | PC-3-TxR |  |  | PC-3-TxR over PC-3 | resistance factor | 43.4 fold |
| CN1CCN(C(=O)C(C)(C)c2ccc(C(=O)Nc3cn4cc(-c5ccncc5)ccc4n3)cc2)CC1 | CLK4 (human) | cellular activity |  |  | IC50 | 1.98 nM |
| CC(=O)O[C@@]12CO[C@@H]1C[C@H](O)[C@@]1(C)C(=O)[C@H](O)C3=C(C)[C@@H](OC(=O)[C@H](O)[C@@H](NC(=O)OC(C)(C)C)c4ccccc4)C[C@@](O)([C@@H](OC(=O)c4ccccc4)[C@H]21)C3(C)C | PC3-TxR |  |  |  | IC50 | 28.2 nM |
